Published values gathered from unrelated publications.
Compare with care: the assays were run in different laboratories. ± marks the error that the study gave.
APP Aβ40 fibrils: Amyloid-beta precursor protein, Aβ40 fibrils (APP, Homo sapiens, UniProt P05067)
GBA2: Beta-glucosidase (GBA2, Homo sapiens, UniProt Q9HCG7)

| SMILES | target | assay | test system | conditions | how to read | measurement | value |
| --- | --- | --- | --- | --- | --- | --- | --- |
| COc1cc(/C=C/c2n[nH]c(-[c-]3cccc3)c2C)ccc1O.[Fe+2].c1cc[cH-]c1 | APP Aβ40 fibrils | amyloid fibril disassembly, thioflavin T fluorescence | – | 24 h, 37 °C, with: 25 µM amyloid-beta | – | DC50 | 10800 ± 700 nM |
| Cc1cccc2c1N(C(=O)n1ccnn1)CC2 | KAI2 (Arabidopsis thaliana, UniProt Q9SZU7, F157A) | ITC | – | F157A mutant, mean | – | Kd | 323000 nM |
| CC(C)Oc1cc(Cl)ccc1CNc1cc(-c2ccccc2)nc2ncnn12 | G-protein coupled receptor 3 (GPR3, Homo sapiens, UniProt P46089, R152A) | cAMP level, agonist, cAMP GloSensor | – | R152A mutant | – | EC50 | 170 nM |
| Cc1nn(-c2cccc(N)c2)c(=O)c2cnc(Nc3ccc(N4CCNCC4)cc3)nc12 | SRSF protein kinase 1 (SRPK1, Homo sapiens, UniProt Q96SB4) | enzyme activity, inhibitor | – | – | – | IC50 | > 10000 nM |
| OC[C@@H]1[C@@H](O)[C@H](O)[C@@H](O)CN1CCCCCOCc1ccc(-c2ccc3c(c2)OCCCO3)cc1 | GBA2 | inhibitor, 4MU-β-D-glucopyranoside | HEK293T homogenates overexpressing GBA2 | – | relative to: GCS IC50 over GBA2 IC50 | selectivity ratio | 2 |
| Cn1ccc2c(N3CCN(CCCCOc4ccc5c(c4)NC(=O)CC5)CC3)cccc21 | Alpha-2A adrenergic receptor (ADRA2A, Homo sapiens, UniProt P08913) | ligand displacement, radioligand | – | – | – | Ki | 410 nM |
| CC(=O)N[C@@H]1[C@@H](O[C@@H]2O[C@H](C(=O)O)[C@@H](O[C@@H]3O[C@H](COS(=O)(=O)O)[C@@H](OS(=O)(=O)O)[C@H](O[C@@H]4O[C@H](C(=O)O)[C@@H](O[C@@H]5O[C@H](COS(=O)(=O)O)[C@@H](OS(=O)(=O)O)[C@H](O[C@@H]6O[C@H](C(=O)O)[C@@H](OS(=O)(=O)O)[C@H](OS(=O)(=O)O)[C@H]6OS(=O)(=O)O)[C@H]5NC(C)=O)[C@H](OS(=O)(=O)O)[C@H]4OS(=O)(=O)O)[C@H]3NC(C)=O)[C@H](OS(=O)(=O)O)[C@H]2OS(=O)(=O)O)[C@H](OS(=O)(=O)O)[C@@H](COS(=O)(=O)O)O[C@H]1N=[N+]=[N-] | Fibroblast growth factor 2 (Homo sapiens, UniProt P09038) | probe displacement, FP competition | – | protein 23 nM, with: TAMRA-labelled sHA tetramer probe | – | EC50 | 520 ± 240 nM |
| Cc1c[nH]c2nccc(-c3ccc(C(=O)N[C@@H]4c5c(F)cc(C(F)F)cc5C[C@@H]4O)cn3)c12 | NUAK family SNF1-like kinase 2 (NUAK2, Homo sapiens, UniProt Q9H093) | binding, competition with immobilised ligand | – | – | – | Kd | 26 nM |
| COc1cc(/C=C/c2cc(-[c-]3cccc3)[nH]n2)ccc1O.[Fe+2].c1cc[cH-]c1 | APP Aβ40 fibrils | amyloid fibril disassembly, thioflavin T fluorescence | – | 24 h, 37 °C, with: 25 µM amyloid-beta | – | DC50 | 10400 ± 650 nM |
| CCc1nc2cc3ccccc3cc2cc1C(=O)N1CCC[C@H]1C(=O)N[C@@H](CCC/C=C/CCC[C@H](NC(=O)[C@@H]1CCCN1C(=O)c1cc2cc3ccccc3cc2nc1CC)C(=O)N[C@@H](CCCCN)C(=O)NCCCN)C(=O)N[C@@H](CCCCN)C(=O)NCCCN | (CCUG)10 RNA | fluorescence titration | – | – | – | Kd | 73.6 ± 0.75 nM |
| CC[C@H]([C@H](CC)c1ccc(O)cc1)[C@@H](C)c1ccc(O)cc1 | Estrogen receptor (ESR1, Homo sapiens, UniProt P03372) | reporter gene, luciferase reporter (3xERE) | 293T | 24 h | – | EC50 | 0.00382 nM |
| C[C@H](OCCCCCN1C[C@H](O)[C@@H](O)[C@H](O)[C@H]1CO)c1ccc(-c2ccccc2)cc1 | GBA2 | inhibitor, 4MU-β-D-glucopyranoside | HEK293T homogenates overexpressing GBA2 | – | relative to: GCS IC50 over GBA2 IC50 | selectivity ratio | 23 |

For quick reference, copied from above:
| SMILES | target | assay | test system | conditions | how to read | measurement | value |
| --- | --- | --- | --- | --- | --- | --- | --- |
| CCc1nc2cc3ccccc3cc2cc1C(=O)N1CCC[C@H]1C(=O)N[C@@H](CCC/C=C/CCC[C@H](NC(=O)[C@@H]1CCCN1C(=O)c1cc2cc3ccccc3cc2nc1CC)C(=O)N[C@@H](CCCCN)C(=O)NCCCN)C(=O)N[C@@H](CCCCN)C(=O)NCCCN | (CCUG)10 RNA | fluorescence titration | – | – | – | Kd | 73.6 ± 0.75 nM |
